{"data": "Measurements collected from several papers", "note": "Each line is one published result; not all experiments were run side by side. Numbers after ± are the reported error."}
{"Structure (SMILES)": "CC/C=C\\C/C=C\\C/C=C\\C/C=C\\C/C=C\\C/C=C\\CCC(=O)Nc1ccn(C2OC(CO)C(O)C2(F)F)c(=O)n1 (stereo not shown)", "cell line": "SN12C", "assay": "NCI60 screen", "measurement": "TGI", "value": "4.49 µM"}
{"Structure (SMILES)": "N=C(N/N=C/c1ncc[nH]1)N/N=C/c1ncc[nH]1", "cell line": "PANC-1", "assay": "crystal violet", "setting": "72 h", "scale": "relative to: IC50 IMR-90 over IC50 PANC-1", "measurement": "selectivity ratio", "value": 18.6}
{"Structure (SMILES)": "Cc1c(C(=O)Nc2ccn(C)n2)ncn1Cc1cccc(C(F)(F)F)c1", "cell line": "M17D expressing αS E46K", "assay": "sequential extraction, western blot", "setting": "10 µM, 48 h, TBS vs Triton X-100 soluble", "measurement": "cytosolic to membrane αS ratio", "value": "increased"}
{"Structure (SMILES)": "COc1cc(CNC(=O)C[C@H](C)CCC=C(C)C)ccc1OCc1cn(-c2ccc(F)cc2)nn1", "cell line": "NCI-H23", "assay": "SRB", "setting": "10 µM, 48 h", "measurement": "growth percent", "value": "74.9%"}
{"Structure (SMILES)": "COc1cc(CN2CCN(c3ccc(C)cc3)CC2)c2cc3[n+](cc2c1O)CCc1cc2c(cc1-3)OCO2", "cell line": "Ca-Ski and MDCK", "assay": "SRB", "setting": "48 h", "scale": "relative to: CC50 MDCK over IC50 Ca-Ski", "measurement": "therapeutic index", "value": 28.5}
{"Structure (SMILES)": "CCC(=C(c1ccc(Cl)cc1)c1ccc(OCCCN(C)C)cc1)c1ccc(OC)cc1", "cell line": "Ishikawa", "assay": "estrogenic activity, agonist", "setting": "1 nM, 72 h, unit not given", "scale": "relative to: DMSO", "measurement": "alkaline phosphatase activity", "value": "1.36 ± 0.97"}
{"Structure (SMILES)": "CC(=O)OC[C@H]1O[C@@H](Sc2sc(C(=O)c3ccc(Br)cc3)c(N)c2-c2nc3ccccc3s2)[C@H](OC(C)=O)[C@@H](OC(C)=O)[C@@H]1OC(C)=O", "cell line": "UACC-257", "assay": "SRB", "setting": "10 µM, 48 h", "scale": "relative to: untreated", "measurement": "growth", "value": "80.2%"}
{"Structure (SMILES)": "COc1cc(CNC(=O)C[C@H](C)CCC=C(C)C)ccc1OCc1cn(-c2cccc([N+](=O)[O-])c2)nn1", "cell line": "KM12", "assay": "SRB", "setting": "10 µM, 48 h", "measurement": "growth percent", "value": "91.3%"}
{"Structure (SMILES)": "N=C(N/N=C/c1ccc(F)cc1)N/N=C/c1ccc(F)cc1", "cell line": "PANC-1", "assay": "crystal violet", "setting": "72 h", "scale": "relative to: IC50 hTERT-HPNE over IC50 PANC-1", "measurement": "selectivity ratio", "value": 1.7}
{"Structure (SMILES)": "COc1cc(CNC(=O)C[C@H](C)CCC=C(C)C)ccc1OCc1cn(-c2ccccc2[N+](=O)[O-])nn1", "cell line": "SK-MEL-5 melanoma cells", "assay": "SRB", "setting": "10 µM, 48 h", "measurement": "growth percent", "value": "16.3%"}
{"Structure (SMILES)": "COc1ccc(C(=O)n2c(C)c(Cc3ccccc3O[C@@H](C)C(=O)O)c3cc(OC(F)(F)F)ccc32)cc1", "cell line": "3T3-L1 preadipocytes", "assay": "qRT-PCR, refers to: aP2", "setting": "concentration not given", "measurement": "mRNA level", "value": "increased"}
{"Structure (SMILES)": "Nc1ncc(-c2cnn(C3CCNCC3)c2)cc1-c1nc2ccc(O)cc2o1", "cell line": "HEL 92.1.7 (JAK2 V617F)", "assay": "western blot, refers to: STAT3 and STAT5", "setting": "10 µM, 48 h", "measurement": "phosphorylation", "value": "not detected"}
{"Structure (SMILES)": "CN1CCN(C(=O)N(CCCCCCC(=O)NO)c2ccc(-c3ccc4cnn(C)c4c3)cc2)CC1", "cell line": "multiple myeloma cells", "assay": "immunoblot, refers to: mTOR and p70S6K", "setting": "concentration not given", "measurement": "phosphorylation", "value": "decreased"}
{"Structure (SMILES)": "COc1cc(CNC(=O)C[C@H](C)CCC=C(C)C)ccc1OCc1cn(-c2ccc(Br)cc2)nn1", "cell line": "NCI-H23", "assay": "SRB", "setting": "10 µM, 48 h", "measurement": "growth percent", "value": "60.1%"}
{"Structure (SMILES)": "O=C(Nc1ccc(C(F)(F)F)cc1Cl)c1cc(Cl)ccc1O", "cell line": "DU-145 (AR-negative)", "setting": "concentration not given, 3 days, dose-dependent", "measurement": "cell growth", "value": "decreased"}
{"Structure (SMILES)": "COc1cc(CNC(=O)C[C@H](C)CCC=C(C)C)ccc1OCc1cn(-c2cccc(C(F)(F)F)c2)nn1", "cell line": "SN12C", "assay": "SRB", "setting": "10 µM, 48 h", "measurement": "growth percent", "value": "27.1%"}
{"Structure (SMILES)": "[Cl-].[Cl][Ru-]1[S+]=C(N2CCCC2)N[N+]1=Cc1ccc(N(c2ccccc2)c2ccccc2)cc1.c1ccccc1", "cell line": "HeLa S3", "setting": "10 µM, 24 h, then 10 days growth", "measurement": "colony formation", "value": "inhibited"}
{"Structure (SMILES)": "COc1ccc([C@@H]2CC(=O)c3c(O)cc(O[C@@H]4O[C@H](CO[C@@H]5O[C@@H](C)[C@H](O)[C@@H](O)[C@H]5O)[C@@H](O)[C@H](O)[C@H]4O)cc3O2)cc1O", "cell line": "A549", "assay": "cell growth or viability, MTS", "setting": "100 µg/mL, 24 h", "measurement": "viability", "value": "60.9%"}
{"Structure (SMILES)": "CCC12CCc3c(c4ccccc4n3C)CCN(CC3OC31)C2 (stereo not shown)", "cell line": "BV-2", "assay": "western blot", "setting": "6, 12 and 25 µM, together with: LPS", "measurement": "iNOS and COX-2 protein level", "value": "decreased"}
